Experimental data pooled from the literature.
Lines come from different studies, so protocols differ.
Sequence of UniProt P53667 (whole entry, looked up): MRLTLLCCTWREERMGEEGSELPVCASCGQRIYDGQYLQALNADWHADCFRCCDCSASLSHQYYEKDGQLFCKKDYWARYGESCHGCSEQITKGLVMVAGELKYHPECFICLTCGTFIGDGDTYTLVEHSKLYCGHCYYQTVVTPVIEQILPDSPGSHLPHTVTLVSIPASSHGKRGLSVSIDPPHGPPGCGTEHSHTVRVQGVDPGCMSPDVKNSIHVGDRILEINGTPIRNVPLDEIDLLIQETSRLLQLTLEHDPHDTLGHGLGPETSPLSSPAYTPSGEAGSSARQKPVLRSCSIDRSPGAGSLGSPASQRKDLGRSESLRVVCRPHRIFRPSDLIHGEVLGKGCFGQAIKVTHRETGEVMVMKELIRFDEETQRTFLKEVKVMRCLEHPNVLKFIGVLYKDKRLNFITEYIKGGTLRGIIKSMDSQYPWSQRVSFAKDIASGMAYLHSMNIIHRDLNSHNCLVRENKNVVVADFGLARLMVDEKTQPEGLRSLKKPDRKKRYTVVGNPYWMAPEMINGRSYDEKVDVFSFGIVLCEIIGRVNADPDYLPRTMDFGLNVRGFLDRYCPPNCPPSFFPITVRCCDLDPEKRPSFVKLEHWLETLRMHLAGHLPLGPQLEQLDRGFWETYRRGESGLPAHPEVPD
Sequence of UniProt Q12866 (whole entry, looked up): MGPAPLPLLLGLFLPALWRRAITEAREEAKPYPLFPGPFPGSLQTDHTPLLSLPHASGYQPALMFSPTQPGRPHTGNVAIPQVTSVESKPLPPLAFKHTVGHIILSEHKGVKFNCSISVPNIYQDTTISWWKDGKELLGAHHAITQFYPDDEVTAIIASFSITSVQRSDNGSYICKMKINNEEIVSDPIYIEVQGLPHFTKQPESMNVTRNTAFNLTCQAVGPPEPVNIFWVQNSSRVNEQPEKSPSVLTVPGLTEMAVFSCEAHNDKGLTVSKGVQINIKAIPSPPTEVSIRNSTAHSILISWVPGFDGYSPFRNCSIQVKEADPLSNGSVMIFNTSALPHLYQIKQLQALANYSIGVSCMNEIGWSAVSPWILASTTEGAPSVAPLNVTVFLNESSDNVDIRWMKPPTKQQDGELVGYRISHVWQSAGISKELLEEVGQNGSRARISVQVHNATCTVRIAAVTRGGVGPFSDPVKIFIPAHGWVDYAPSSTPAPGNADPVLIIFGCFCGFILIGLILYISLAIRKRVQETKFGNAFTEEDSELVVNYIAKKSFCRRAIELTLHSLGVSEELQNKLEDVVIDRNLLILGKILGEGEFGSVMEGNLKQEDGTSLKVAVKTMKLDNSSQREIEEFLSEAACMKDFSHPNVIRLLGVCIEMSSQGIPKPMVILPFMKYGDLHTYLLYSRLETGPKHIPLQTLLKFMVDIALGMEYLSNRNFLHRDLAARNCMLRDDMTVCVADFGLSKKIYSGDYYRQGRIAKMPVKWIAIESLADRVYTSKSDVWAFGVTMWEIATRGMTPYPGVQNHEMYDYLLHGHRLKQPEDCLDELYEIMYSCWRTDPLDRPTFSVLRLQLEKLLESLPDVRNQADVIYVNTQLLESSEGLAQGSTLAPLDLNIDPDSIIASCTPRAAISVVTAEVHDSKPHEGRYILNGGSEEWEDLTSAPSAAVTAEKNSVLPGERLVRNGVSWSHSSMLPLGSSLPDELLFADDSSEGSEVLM
Sequence of UniProt Q9H3Y6 (whole entry, looked up): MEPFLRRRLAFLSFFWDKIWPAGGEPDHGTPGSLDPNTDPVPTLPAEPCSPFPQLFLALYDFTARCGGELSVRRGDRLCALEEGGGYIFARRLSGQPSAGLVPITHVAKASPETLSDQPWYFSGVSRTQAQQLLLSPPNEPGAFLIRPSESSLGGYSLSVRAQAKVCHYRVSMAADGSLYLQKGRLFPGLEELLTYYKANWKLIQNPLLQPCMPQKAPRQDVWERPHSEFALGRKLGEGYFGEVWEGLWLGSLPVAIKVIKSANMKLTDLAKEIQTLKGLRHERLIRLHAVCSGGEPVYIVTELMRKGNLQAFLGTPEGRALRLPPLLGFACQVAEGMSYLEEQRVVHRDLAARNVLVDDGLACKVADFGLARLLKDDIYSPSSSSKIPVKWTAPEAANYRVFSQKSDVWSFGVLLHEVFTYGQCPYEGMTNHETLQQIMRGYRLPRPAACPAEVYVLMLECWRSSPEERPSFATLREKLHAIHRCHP
Sequence of UniProt Q9UIK4 (whole entry, looked up): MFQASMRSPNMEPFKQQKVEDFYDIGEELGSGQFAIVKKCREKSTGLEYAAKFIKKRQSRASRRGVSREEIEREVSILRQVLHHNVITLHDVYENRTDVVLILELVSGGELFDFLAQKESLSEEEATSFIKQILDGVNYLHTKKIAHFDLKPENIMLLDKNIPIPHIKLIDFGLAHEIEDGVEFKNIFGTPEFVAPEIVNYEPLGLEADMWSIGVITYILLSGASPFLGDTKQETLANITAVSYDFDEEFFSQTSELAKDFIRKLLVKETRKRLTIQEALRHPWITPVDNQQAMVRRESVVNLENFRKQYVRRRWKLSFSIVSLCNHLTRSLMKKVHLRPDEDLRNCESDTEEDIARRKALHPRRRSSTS
Sequence of UniProt P22607 (whole entry, looked up): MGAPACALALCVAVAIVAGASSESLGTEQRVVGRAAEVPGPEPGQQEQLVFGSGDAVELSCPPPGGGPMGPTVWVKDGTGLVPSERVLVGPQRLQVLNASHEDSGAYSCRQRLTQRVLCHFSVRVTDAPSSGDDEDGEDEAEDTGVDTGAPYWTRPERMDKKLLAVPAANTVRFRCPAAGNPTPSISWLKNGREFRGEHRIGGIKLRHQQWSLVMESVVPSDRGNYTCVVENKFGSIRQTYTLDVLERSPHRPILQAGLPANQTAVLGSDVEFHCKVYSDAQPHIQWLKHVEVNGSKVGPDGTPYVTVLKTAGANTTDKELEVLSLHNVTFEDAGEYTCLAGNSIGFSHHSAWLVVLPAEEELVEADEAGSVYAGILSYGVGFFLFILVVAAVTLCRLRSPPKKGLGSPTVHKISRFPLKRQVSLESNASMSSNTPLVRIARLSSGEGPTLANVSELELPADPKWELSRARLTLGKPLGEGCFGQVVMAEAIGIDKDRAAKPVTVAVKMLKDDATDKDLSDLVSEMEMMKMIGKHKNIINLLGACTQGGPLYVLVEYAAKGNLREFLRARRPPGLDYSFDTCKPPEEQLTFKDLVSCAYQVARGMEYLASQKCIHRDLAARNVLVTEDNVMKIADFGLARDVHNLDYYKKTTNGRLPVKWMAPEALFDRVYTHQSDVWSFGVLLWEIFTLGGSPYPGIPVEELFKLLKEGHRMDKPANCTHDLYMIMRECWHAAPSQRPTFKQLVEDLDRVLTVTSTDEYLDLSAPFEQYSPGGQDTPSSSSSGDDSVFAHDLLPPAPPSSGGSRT
Sequence of UniProt P19784 (whole entry, looked up): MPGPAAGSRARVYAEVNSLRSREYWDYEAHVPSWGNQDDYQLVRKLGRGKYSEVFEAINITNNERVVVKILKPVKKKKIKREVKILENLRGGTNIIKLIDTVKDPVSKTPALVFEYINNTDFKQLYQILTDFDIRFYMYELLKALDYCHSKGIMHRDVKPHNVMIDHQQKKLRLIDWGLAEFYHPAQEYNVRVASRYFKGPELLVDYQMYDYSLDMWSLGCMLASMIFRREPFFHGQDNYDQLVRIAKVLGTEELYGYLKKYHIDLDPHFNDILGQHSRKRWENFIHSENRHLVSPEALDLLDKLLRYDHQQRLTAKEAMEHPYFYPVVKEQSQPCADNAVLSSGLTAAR
Sequence of UniProt P07711 (whole entry, looked up): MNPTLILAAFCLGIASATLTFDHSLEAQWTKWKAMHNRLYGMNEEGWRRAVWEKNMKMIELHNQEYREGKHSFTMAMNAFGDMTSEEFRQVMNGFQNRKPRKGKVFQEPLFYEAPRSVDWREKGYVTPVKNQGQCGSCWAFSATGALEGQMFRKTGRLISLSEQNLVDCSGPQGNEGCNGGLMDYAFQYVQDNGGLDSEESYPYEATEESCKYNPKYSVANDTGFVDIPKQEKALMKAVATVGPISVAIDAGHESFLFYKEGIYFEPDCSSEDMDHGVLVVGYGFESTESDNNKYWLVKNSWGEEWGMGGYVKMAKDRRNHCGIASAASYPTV

SMILES | target | test | conditions | measurement | value
Cc1cc([C@@H](C)Nc2ccccc2C(=O)O)c2nc(N3CCC(F)(F)CC3)c(C#N)c(=O)n2c1 | Fibroblast growth factor receptor 3 (FGFR3, Homo sapiens, UniProt P22607) | binding, competition with immobilised ligand | 1 µM | remaining binding | 97%
COc1cc(-c2cncc3c2CN(C)Cc2cc(N4CCNCC4)ccc2-3)cc(OC)c1OC | Tyrosine-protein kinase Srms (SRMS, Homo sapiens, UniProt Q9H3Y6) | enzyme activity, inhibitor | 1 µM | remaining activity | 117%
Nc1ncnc2occ(-c3ccc(NC(=O)Nc4cc(C(F)(F)F)ccc4F)cc3)c12 | Tyrosine-protein kinase ABL1, phosphorylated (ABL1, Homo sapiens, UniProt P00519, M351T) | cell-free assay, inhibitor | 20 µM | remaining signal | 3.3%
C=CC(=O)N1CCC(COCC(=O)N2CCN(c3nc(-c4cnc(N)nc4C(F)F)nc(N4CCOC[C@@H]4C)n3)CC2)CC1 | Death-associated protein kinase 2 (DAPK2, Homo sapiens, UniProt Q9UIK4) | binding, competition with immobilised ligand | 1 µM | remaining binding | 100%
C1=C/COCc2cc(ccc2OCCN2CCCC2)Nc2nccc(n2)-c2cccc(c2)COC/1 | Casein kinase II subunit alpha' (CSNK2A2, Homo sapiens, UniProt P19784) | binding | 0.1 µM | remaining binding | 28%
CCCCC(=O)Nc1ccc(-c2ccc3ncn(CCC)c(=O)c3c2)cn1 | Tyrosine-protein kinase Mer (MERTK, Homo sapiens, UniProt Q12866) | binding, competition with immobilised ligand | 0.5 µM | remaining binding | 100%
O=C(C=Cc1ccccc1O)c1ccccc1O | Procathepsin L (CTSL, Homo sapiens, UniProt P07711) | enzyme activity, inhibitor | 100 µM | remaining activity | 87.3%
CNc1ncc2c(/C=C/C(=O)N3CCC(OC)CC3)nn(Cc3cccc(C(F)(F)F)c3)c2n1 | LIM domain kinase 1 (LIMK1, Homo sapiens, UniProt P53667) | enzyme activity, inhibitor, radiometric | 1 µM | remaining activity | 93%

Excerpt of the above:
SMILES | target | test | conditions | measurement | value
C1=C/COCc2cc(ccc2OCCN2CCCC2)Nc2nccc(n2)-c2cccc(c2)COC/1 | Casein kinase II subunit alpha' (CSNK2A2, Homo sapiens, UniProt P19784) | binding | 0.1 µM | remaining binding | 28%
